# Measured values pooled from the literature.
# Each numbered part is a random draw from the data of one study; scales do not carry over between parts.

# Study 1
# Target: RING finger protein unkempt homolog, zinc fingers 1-6, GST-SBP tag (UNK, Homo sapiens, UniProt Q9C0B0, residues 30-357)
# Method: RNA Bind-n-Seq
# Form: RNA
# Medium: in vitro
# Concentration: not given
# Notes: RNA with constant flanks, human-mouse chimeric sites, ends assumed
# Relative to: input RNA pool
# Reading: higher = stronger binding
# Construct (chain): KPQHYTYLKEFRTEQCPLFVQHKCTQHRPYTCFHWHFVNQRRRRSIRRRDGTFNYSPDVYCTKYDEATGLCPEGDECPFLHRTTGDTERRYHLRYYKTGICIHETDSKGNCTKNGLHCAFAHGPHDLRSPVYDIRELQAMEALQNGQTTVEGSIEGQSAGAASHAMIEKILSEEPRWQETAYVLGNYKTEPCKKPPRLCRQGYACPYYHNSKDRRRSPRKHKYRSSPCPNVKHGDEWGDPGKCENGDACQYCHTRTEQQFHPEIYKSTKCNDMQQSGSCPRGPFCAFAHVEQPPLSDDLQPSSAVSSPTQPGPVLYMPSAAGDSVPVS
Oligonucleotide,bound/input enrichment
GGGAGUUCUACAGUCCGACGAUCUACAUUUUACACUGUUGUUUCAUUUUCAUAUAUUCUUGUAGUGUCUGCUUGCCUGUGACUUCUGGUAAAAUAAAAUAAGCCUUUGAAAAUAUUUUAGCAUGGUAUUUAACAUUUUCUAAACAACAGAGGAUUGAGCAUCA,3.43 ratio
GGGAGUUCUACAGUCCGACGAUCUCUUAACUUAUUCAUUUAACUUAUUUUUAUAGCUAGAGCAAUAUUGUUAGUCUUAGUCAAUAGCUCACAUUUUUUGAGAAGCAUGCCCUCCCUGUCCAUUUGUCUUAUAACAUGACCCAGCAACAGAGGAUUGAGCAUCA,137 ratio
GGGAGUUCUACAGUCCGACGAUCUCUGAGGUACCACUGAAGAGACCUUAAAAGAAUCAUUUGAGGGCUCUGUUCGUGCAAGAAUAGUCACCUGACCGGGAACUGGUUCUUCCAAAGGGUUUGGUUUUGUAGACUUUAAUAGUGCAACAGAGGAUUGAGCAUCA,0.816 ratio
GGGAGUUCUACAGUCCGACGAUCCUUCGGAAAAAAAAAUUACCUUUUCUGACAGUGCUUUCCCUCCCAUAGAUCCACGUUCAAGCUCAAAGAGCAAAGGCUUUGCACGGAUCUGAUGAUGCUGAUGAAGAAAGAUUUCUGAGACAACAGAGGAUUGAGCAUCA,0.218 ratio
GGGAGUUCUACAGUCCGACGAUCUCUGGUCACACUCGUGUGUAUGGUGUUUGCUUUGUGGAUACUUCACUGGGCAAGUUUUUCAUCGGCCAGUUUUCGGAUGAUCGCCAUUGUUCCAGAUUUAGGACGCUAGUGGCUCACUAUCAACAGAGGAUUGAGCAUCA,0.384 ratio
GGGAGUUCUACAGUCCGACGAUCAUGGAACAUUUCGAUGCGUCACUCAGUACCUAUUUCAAGGCCUUCCUGGGCCCCCGAGAUACUAGAGUCAAAGGAUGGUUCCUCCUGGACAAUUACAUCCCUACGUUUGUCUGUUCUGUUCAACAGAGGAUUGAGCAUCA,0.0925 ratio
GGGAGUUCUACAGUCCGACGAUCCAGCGCCGAGGCCGCGGUUUCCCCCUGGGUGUGCUGAGCAGCAGCCAUGGGCAUCAAAUUUUUAGAAGUUAUCAAACCAUUCUGUGCAGUUCUACCAGAAAUUCAGAAACCGGAAAGGAACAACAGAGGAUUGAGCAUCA,1.44 ratio
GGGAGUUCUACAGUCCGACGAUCAGAGAAAUGAGAAAGAAUCUCACACAAGAAGAGAUGCAAAGAAUGUCUACUAGAGUCCUUUUGGCGACUCUUUCCAUUCCUAUUACUCCUGAGCGUACUGAUAUUGCUCGACUUUUGGAUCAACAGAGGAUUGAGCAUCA,0.0928 ratio
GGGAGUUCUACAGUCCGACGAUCCUGGCCUUCUGAGCAUCUCUAGUGACCUUUCGUAUAGUCACUGCUUCUGCAUCAGAUACUUUCAGCUGCAACUCCCUACUGGGUGGGGCACCCAUUUCAGGCAGAAGGUUUUGGUACCCUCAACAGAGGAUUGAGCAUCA,0.184 ratio
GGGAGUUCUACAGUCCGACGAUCACCAUUUUCGCGGUUCAAGGUUUUGUGGUAGUUCACUUACGGUAUUAAAUUAUUAUUCUGCUUAGCUUAUAAUAAGGAUAAUUGCAUUUAAAGAGGUUACUGAAUGUUACUCUGAAACUUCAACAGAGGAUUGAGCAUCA,0.435 ratio
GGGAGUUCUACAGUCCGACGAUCCUGGCCUGGCCCUCCCCAGGGGCCUCCUUUCGUAUAGUCACUGCUUCUGCAUCAGAUAUUUUUAGCUGCAACUCCCUACUGGGUGGGGCACCCAUUUCAGGCAGAAGGUUUUGGUACCCUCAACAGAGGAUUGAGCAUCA,0.401 ratio

# Study 2
# Target: RNA binding protein fox-1 homolog 2, RRM domain, GST-SBP tag (RBFOX2, Homo sapiens, UniProt O43251-10, residues 100-194)
# Method: RNA Bind-n-Seq
# Form: RNA
# Medium: in vitro
# Concentration: 365 nM
# Notes: natural RNA segment, single round, ends assumed
# Relative to: no-protein control
# Reading: higher = stronger binding
# Residues (chain): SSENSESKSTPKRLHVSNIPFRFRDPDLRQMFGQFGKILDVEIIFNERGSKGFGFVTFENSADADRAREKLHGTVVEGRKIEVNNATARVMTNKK
Oligonucleotide,RBNS enrichment (R)
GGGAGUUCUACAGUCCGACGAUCAGGACUGGCCCAGGGAGGAGGAAGCCAGCAGCACACCUGGGGAAUGGGGUCCCGGCCGGGAGGCUUGGCCUCUGGGCGACCUCGUCCUGUUUUUUUUGUUUGUUUGUUUGUGGAAUUCUCGGGUGCCAA,0.955
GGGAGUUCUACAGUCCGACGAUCUCUGUCUGCCCCACUGUCCUGGGGUCGCUCUUGGGAGGCACAGGCAUGGGUGUGUCUGGCCUCAUUCUGUAUCAGUCCAGUGUGUUCCUGUCAUAGUUUGUGUCUCCCAGUGGAAUUCUCGGGUGCCAA,0.326
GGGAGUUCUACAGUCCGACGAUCAAGAGGAGCUGGUGGCUGCCAGCCCUGGGGCCCGGCACAGGCCUGGGCCUUCCCCUUCCCUCAAGCCAGGGCUCCUCCUCCUGUCGUGGGCUCAUUGUGACCACUGGCCUUGGAAUUCUCGGGUGCCAA,0.318
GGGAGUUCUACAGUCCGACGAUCUAGAGCUCCUGAGGUACUGUUCCAGUGAGGGGCAUUAUGAGAGGAGCGGGGCAGCCCAGGAGGUCUCAUACCCCACCCGUAAUCUGUACAGACUGAGAGGCCAGUUGAUCUGGAAUUCUCGGGUGCCAA,0.22
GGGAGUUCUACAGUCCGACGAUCACCUCCCAGGCAUCUGAACAGGAUGACAUCAUCUUAUUAUAUCUUACUUUACACAUACGUGUAUGUACACACACACACACAAUACAAGACAUUUUUCCUGUUUUAGAAAAUGGAAUUCUCGGGUGCCAA,0.639
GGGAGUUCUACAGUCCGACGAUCUAGUAUAAUGAUGGUCUUGGAUUGUCUGACCUCAGUAGCUAUUAAAUAACAUCAAGUAACAUCUGUAUCAGGCCCUACAUAGAACAUACAGUUGAGUGGGAGUAAACAAAUGGAAUUCUCGGGUGCCAA,0.411
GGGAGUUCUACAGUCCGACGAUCUUUGUUGUUGAAUCCGGGUAUCCAGGCUGAGAAGGGAAGAAAAAUAGCCACUAACUCUGCAACAAUCCUUGGCUGUUGUCAUUGUUGUCUUUAUUUUAGGCUGGAUUUCAUGGAAUUCUCGGGUGCCAA,1.1
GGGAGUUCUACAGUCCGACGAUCAGGCUGAGCUUCUGAUUCACCACCCCAGGGCCUCCUUAUAGUUCUCUGCACACAAUAGGUGCUUCUUGGAUGUUCUUGGGUUUGGAAAUAAGUGGAAAAUACGGGAUGUAUGGAAUUCUCGGGUGCCAA,2.11
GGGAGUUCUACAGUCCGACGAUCCCUGGCCGAUUGGUGCUCCUUCUACACUCAUACCUCUACCUCUCACUGGGGCCAGCAGGAGUUGGGAACCCCUCUGAGGUGAUUUGCCUGAGCAUGGGGUUCCGGCUGUCUGGAAUUCUCGGGUGCCAA,0.521
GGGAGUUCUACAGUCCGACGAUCCUACGAGUAGGAUCUCUUCACGGAGGACCUGCAGCUUCAUCUUCUGGAUUGGAGAUUAUUCUUGGUUAUGUUUUGGAAUCAGUCCUUUAUCUUAGUGUGCACUUGAUUGUUGGAAUUCUCGGGUGCCAA,3.7
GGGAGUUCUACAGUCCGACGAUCUUAAUGCUUUCCCACCUGCUCCAAGAGAACUAGCCCUCAACCAGUGCUGCGGCCUGUUCAUAUGCUCUCAUACUUUUUCAAAUCAUGAUGAGAAUUUUUCUCCUAUAUACUGGAAUUCUCGGGUGCCAA,0.701
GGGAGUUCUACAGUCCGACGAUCUCCGCAUGUGUAGUCUCCCCUCGCCUCCCCCACCUCCCAUCCCCCUUUUUUCCAAUCAAGCUGUUUCCCCUGUUCUUACCCUAUAUAAGUUGCAAACAAUAUCGCUGAACUGGAAUUCUCGGGUGCCAA,4.37

# Study 3
# Target: Phosphate system positive regulatory protein PHO4, full length, GST-tagged (PHO4, Saccharomyces cerevisiae, UniProt P07270, residues 1-312)
# Method: competition protein-binding microarray
# Form: double-stranded DNA, one strand shown
# Medium: in vitro
# Concentration: 2 µM
# Notes: whole 60-bp probe, lowest competitor level
# With: Cbf1 competitor, 0.05 µM
# Reading: higher = stronger binding
# Construct (chain): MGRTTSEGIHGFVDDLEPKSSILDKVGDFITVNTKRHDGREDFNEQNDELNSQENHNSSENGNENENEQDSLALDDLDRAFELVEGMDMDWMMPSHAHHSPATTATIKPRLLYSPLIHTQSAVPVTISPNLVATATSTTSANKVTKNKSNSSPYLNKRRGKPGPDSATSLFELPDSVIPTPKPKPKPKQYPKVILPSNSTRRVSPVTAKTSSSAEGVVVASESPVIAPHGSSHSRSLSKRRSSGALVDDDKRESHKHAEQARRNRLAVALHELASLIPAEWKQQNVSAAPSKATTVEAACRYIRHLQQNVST
Oligonucleotide,fluorescence intensity [a.u.]
AAATTACTAAGTTGTGCCGTGGGTGACGCCGTATGAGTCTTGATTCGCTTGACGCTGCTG,6020
ATAGAGCTGTATTCTGAAGACCTCTTGTAGAACATCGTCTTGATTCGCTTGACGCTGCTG,2590
CGTCCTAGTGATTGGGCTGTGGGTGCCATGAGGAAGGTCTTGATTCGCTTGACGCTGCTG,6330
CTTCTGTAAATTTGTGAAGTGGGTGGACGCGCCCCGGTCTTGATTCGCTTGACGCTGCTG,4440
GAAGATCCAAGCCTGCACCTGACGGGTTCGAAAAAAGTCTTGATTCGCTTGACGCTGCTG,4360
CGTCCTAGTGATTGCCTAGTGGGTGCCATGAGGAAGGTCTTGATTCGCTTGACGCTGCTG,6520
CTTCTGTAAATTTGTCACCGAACTTGACGCGCCCCGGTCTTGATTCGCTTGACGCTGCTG,3040
CGGGGTTAAGTTTGCATCGTGGGTGGCTTGCAGCAGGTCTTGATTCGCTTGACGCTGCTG,10000
CAGCGAGTTCTTTAGCACGCTTCTGTCTTTCAGCATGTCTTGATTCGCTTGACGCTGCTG,8570
GTCTTGTCTCATTGCTAGGTGGGTGTCCCCACTTCAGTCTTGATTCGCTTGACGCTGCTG,4280
CGTCCTAGTGATTGCCGCGTGGGTGCCATGAGGAAGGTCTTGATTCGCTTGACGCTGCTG,10800
CGTATTTGTCACCATCACGTGCTTTAAAATCTTCAGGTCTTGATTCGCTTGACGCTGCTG,20700
GTCTTGTCTCATTGCTCTGTGGGTGTCCCCACTTCAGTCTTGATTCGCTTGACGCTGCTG,4640
CTTTTCATTAGGCTTCCTAATTATACCCATCTATGCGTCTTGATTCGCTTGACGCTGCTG,3830
CTTTCCCGATCTTGTTACGTGGGTGTAGCACATTTGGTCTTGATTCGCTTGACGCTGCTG,6070
CTAACGAAGGTTTGGAAAGTGGGTGACAAGCCAAGTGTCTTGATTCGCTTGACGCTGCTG,3480
TTGACAGTCCCTGGACATGTGGCCAGCTTTACCACAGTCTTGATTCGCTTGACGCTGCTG,11100
AAATTACTAAGTTGTCACGGTACTTACCCCGTATGAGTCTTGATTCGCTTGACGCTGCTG,4810

# Study 4
# Target: Histone acetyltransferase KAT6A, both winged helices, GST fusion (KAT6A, Homo sapiens, UniProt Q92794, residues 1-181)
# Method: protein binding microarray
# Form: double-stranded DNA, one strand shown
# Medium: in vitro
# Concentration: not given
# Notes: 8-mer, flanks averaged, mean of 2 arrays, mostly near background
# Relative to: not given
# Reading: higher = stronger binding
# Target sequence (chain): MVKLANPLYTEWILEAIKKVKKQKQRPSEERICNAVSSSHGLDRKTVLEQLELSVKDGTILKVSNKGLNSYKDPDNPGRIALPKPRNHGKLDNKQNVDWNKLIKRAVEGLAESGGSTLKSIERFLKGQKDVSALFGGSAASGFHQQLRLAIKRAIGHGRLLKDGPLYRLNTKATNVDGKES
Oligonucleotide,E-score
CAAGATGA,-0.156
GAGTTCTA,-0.127
ATGGGAGC,-0.037
CCCGGAAG,0.0797
TCAGCTCA,-0.0781
CGTCGCCC,0.202
AGACGCGC,0.339
AATCGATG,-0.151
CTTCATTA,-0.0128
CATACGCA,0.131
GTAGCGTA,0.0808
ATGAATCA,-0.116
AGGCCGTG,0.187
CACGAGAC,0.00783
AGGGCCTG,-0.275
ACCGCAAG,0.137
CAGTGCAG,-0.0448
ATTTTCGA,0.0353
AGGCGTGA,-0.0389
ATTTCATC,-0.0696
GATGGTGA,-0.232
CAGCAAAC,-0.0814
ATGTACAA,-0.0482

# For quick reference, copied from above (study 4):
Oligonucleotide,E-score
GTAGCGTA,0.0808
ATGAATCA,-0.116
AGGCCGTG,0.187
CACGAGAC,0.00783
AGGGCCTG,-0.275
ACCGCAAG,0.137
CAGTGCAG,-0.0448
ATTTTCGA,0.0353
AGGCGTGA,-0.0389
ATTTCATC,-0.0696
